Measurements pooled from the literature.
Parts stem from different laboratories: compare values within a part only.
Sequence of UniProt Q12866 (whole entry, looked up): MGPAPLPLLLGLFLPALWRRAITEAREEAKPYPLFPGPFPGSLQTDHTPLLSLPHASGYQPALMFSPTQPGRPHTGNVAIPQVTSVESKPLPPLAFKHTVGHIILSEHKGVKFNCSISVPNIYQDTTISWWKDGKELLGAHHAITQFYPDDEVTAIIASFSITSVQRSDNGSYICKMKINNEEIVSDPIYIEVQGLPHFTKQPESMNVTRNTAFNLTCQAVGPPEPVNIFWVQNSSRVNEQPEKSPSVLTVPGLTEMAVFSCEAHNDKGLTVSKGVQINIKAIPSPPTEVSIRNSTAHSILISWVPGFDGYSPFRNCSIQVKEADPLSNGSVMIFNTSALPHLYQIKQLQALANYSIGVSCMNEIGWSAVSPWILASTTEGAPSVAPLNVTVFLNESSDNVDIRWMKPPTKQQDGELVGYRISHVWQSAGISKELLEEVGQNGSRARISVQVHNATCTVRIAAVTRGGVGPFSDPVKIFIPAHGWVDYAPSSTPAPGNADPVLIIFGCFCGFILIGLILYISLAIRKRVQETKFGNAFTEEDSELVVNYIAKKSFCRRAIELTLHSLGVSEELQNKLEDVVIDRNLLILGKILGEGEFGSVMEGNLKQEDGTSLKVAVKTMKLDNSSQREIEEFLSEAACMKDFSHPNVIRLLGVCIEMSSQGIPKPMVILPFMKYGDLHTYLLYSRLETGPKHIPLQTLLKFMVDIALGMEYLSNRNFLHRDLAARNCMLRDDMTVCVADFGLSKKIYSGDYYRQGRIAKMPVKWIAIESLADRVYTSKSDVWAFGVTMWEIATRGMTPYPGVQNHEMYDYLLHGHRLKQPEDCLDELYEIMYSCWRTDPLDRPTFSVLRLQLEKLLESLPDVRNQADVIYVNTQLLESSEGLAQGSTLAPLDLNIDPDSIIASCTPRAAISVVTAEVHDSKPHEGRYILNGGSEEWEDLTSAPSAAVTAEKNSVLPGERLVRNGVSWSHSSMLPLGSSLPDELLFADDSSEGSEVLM
Sequence of UniProt Q6ZWH5 (whole entry, looked up): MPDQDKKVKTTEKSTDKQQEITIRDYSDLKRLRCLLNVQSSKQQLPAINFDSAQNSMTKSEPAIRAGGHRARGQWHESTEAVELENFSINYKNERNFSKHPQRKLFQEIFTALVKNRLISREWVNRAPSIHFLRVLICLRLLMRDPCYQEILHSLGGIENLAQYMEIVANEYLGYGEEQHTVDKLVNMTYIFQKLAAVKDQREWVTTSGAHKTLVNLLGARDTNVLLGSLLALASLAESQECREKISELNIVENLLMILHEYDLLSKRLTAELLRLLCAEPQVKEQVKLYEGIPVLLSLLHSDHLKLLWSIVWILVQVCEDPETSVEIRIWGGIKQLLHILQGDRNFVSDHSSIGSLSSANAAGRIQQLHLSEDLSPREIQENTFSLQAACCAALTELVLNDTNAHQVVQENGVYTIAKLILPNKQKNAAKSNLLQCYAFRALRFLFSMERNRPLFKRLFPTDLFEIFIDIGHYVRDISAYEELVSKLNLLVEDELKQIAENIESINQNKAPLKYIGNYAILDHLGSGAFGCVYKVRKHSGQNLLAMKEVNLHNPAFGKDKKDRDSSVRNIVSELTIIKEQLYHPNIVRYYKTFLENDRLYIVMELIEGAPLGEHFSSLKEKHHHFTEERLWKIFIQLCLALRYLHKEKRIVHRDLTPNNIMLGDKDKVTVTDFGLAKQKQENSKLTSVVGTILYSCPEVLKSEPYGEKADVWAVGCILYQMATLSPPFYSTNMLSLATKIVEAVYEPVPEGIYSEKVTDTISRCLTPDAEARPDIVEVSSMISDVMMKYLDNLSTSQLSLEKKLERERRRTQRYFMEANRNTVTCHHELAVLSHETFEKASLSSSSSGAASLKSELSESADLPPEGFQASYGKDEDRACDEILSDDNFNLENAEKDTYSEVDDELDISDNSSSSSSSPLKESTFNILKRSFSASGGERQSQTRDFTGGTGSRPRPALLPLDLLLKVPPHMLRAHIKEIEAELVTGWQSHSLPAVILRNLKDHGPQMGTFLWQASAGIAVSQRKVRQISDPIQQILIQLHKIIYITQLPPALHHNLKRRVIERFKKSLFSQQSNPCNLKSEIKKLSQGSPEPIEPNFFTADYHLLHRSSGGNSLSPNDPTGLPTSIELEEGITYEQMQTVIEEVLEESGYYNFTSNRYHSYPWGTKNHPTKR
Sequence of UniProt P17948 (whole entry, looked up): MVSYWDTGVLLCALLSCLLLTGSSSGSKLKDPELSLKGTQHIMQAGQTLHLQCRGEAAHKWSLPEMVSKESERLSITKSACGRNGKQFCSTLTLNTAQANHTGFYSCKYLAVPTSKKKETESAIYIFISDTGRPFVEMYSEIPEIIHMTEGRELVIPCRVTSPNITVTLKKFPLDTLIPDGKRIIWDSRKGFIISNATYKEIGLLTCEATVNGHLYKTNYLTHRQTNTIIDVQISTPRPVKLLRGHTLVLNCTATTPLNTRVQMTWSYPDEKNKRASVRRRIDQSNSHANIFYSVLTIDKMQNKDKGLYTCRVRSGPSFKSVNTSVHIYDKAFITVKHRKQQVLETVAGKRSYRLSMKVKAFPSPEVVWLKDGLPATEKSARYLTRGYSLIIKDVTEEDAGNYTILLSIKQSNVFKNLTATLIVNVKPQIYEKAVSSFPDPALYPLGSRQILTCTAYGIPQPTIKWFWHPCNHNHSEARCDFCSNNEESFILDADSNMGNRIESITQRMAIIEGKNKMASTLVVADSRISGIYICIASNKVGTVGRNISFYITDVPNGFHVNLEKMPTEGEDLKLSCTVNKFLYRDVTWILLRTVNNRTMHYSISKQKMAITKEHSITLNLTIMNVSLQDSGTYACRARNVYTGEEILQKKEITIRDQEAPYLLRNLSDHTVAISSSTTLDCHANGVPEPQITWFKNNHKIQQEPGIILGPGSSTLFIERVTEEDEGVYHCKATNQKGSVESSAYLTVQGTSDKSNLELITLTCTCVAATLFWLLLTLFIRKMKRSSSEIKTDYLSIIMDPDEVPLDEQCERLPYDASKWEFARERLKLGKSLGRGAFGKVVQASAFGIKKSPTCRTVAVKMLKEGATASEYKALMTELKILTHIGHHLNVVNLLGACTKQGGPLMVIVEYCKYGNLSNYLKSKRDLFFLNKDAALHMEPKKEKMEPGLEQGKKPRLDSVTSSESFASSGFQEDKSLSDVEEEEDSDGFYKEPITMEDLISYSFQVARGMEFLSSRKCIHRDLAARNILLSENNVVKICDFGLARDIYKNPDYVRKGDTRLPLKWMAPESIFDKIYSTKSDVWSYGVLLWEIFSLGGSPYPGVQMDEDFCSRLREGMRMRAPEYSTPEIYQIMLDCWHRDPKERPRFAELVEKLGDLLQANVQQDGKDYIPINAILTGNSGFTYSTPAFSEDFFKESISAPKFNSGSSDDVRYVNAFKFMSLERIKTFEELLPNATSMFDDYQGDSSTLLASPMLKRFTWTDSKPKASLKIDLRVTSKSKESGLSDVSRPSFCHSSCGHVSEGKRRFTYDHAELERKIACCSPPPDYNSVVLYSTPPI
Sequence of UniProt Q9NRM7 (whole entry, looked up): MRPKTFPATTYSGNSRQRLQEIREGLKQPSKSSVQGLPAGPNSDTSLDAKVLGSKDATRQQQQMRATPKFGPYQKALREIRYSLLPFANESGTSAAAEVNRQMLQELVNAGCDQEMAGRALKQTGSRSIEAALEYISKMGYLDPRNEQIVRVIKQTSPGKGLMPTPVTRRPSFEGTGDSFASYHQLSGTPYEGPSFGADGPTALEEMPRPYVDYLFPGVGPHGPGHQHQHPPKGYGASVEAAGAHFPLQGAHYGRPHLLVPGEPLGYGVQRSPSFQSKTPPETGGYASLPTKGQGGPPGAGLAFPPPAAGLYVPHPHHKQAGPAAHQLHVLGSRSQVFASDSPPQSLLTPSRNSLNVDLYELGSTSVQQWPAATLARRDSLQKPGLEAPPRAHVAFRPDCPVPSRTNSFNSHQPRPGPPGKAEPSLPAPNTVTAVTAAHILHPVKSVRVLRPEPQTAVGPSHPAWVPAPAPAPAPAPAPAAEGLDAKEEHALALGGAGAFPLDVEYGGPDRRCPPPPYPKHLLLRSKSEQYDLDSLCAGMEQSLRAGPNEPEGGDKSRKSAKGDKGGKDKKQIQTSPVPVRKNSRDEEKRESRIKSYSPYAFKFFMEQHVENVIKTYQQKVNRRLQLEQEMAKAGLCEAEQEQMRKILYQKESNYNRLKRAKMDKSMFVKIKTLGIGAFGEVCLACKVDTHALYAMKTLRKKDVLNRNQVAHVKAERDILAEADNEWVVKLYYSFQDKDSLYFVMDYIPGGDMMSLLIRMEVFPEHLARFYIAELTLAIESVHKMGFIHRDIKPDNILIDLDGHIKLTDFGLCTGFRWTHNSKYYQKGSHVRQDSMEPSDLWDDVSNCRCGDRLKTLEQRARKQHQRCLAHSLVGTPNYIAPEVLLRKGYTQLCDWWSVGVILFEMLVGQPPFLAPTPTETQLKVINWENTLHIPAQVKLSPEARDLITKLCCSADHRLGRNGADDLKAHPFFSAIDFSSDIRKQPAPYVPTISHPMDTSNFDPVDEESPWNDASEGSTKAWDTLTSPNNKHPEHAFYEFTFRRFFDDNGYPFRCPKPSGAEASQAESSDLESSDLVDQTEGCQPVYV

Block 1
Target: Phosphate system positive regulatory protein PHO4, full length, GST-tagged (PHO4, Saccharomyces cerevisiae, UniProt P07270, residues 1-312)
Method: competition protein-binding microarray
Form: double-stranded DNA, one strand shown
Matrix: in vitro
Concentration: 2 µM
Setting: whole 60-bp probe, lowest competitor level
With: Cbf1 competitor, 0.05 µM
Direction: higher = stronger binding
Target sequence (chain): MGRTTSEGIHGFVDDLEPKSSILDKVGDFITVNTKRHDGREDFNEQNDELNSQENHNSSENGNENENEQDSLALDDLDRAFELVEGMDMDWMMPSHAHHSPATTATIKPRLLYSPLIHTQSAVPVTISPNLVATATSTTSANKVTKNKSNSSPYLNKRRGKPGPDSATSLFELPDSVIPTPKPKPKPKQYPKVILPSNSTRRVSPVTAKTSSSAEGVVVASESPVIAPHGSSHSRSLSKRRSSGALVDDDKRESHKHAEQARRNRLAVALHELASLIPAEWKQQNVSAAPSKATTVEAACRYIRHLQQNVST
Sequence | fluorescence intensity [a.u.]
CGTCCTAGTGATTTTCACGTGTGGTCCATGAGGAAGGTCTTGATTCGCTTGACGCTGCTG | 12000
CGGGCCGTTCCGCGGGATGTGACGCTTCGCAAGTTAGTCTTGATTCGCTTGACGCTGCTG | 3290
GTCTTGTCTCATTGTCACATAACTTTCCCCACTTCAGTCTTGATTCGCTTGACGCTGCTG | 4520
CTAACGAAGGTTTTTCACGTGACCTACAAGCCAAGTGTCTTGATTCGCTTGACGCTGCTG | 10500
ACATAGTCTGATCGGCACGTGAGAAAGTGCCATACCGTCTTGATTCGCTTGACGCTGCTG | 14000
GCGCCGGGCGCTGGCCACGTGCAGGTAGGAGCGCGGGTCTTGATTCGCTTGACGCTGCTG | 17200
CTTCTGTAAATTTTTCACGTGTGCTGACGCGCCCCGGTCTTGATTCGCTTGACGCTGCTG | 11900
CATACCCAACCTTGTGCGGTGGGTGAAGATATTTGTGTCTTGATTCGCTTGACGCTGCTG | 7270

Block 2
Target: TGF-beta receptor type-1 (TGFBR1, Homo sapiens, UniProt P36897)
Sequence of UniProt P36897 (whole entry, looked up): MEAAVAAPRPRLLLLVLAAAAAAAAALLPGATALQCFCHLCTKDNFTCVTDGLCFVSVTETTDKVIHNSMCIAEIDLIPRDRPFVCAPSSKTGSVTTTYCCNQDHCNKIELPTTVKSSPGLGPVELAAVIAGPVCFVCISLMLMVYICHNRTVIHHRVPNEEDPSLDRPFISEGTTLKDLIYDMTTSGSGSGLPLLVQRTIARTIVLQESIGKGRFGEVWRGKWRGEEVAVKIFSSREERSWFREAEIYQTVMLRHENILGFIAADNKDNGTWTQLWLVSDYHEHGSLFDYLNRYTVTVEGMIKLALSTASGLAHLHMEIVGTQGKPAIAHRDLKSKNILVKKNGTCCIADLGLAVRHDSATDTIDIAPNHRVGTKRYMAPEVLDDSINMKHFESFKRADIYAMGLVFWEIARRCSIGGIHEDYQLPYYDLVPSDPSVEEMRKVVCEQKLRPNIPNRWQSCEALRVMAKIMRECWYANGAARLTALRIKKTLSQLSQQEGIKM
Observed: enzyme activity
Mode: inhibitor
Concentration: 0.5 µM
Relative to: control
Structure (SMILES) | remaining activity [%]
CCN(CC)CCNC(=O)c1c(C)[nH]c(/C=C2\C(=O)Nc3ccc(F)cc32)c1C | 101
CCOc1nc(NC(=O)Cc2cc(OC)ccc2OC)cc(N)c1C#N | 97.8
Nc1cccc(-c2cc3c(Oc4cccc(O)c4)ncnc3[nH]2)c1 | 101
COc1cc2ncnc(Nc3cccc(Cl)c3)c2cc1OC | 100
N#Cc1c(NC(=O)c2cccc3ccccc23)sc2c1CCCC2 | 101
O=C(Nc1cccc(Nc2nccc(Nc3cccc(C(F)(F)F)c3)n2)c1)C1CC1 | 102
Cc1nc2cc3nc(-c4cccs4)cnc3cc2n1C | 98.7
Cc1cc2ncc(-c3ccccc3)nc2cc1C | 94.7
N#C/C(=C\c1ccc(O)c(O)c1)C(=O)NCc1ccccc1 | 97.6
CCN(CC)C(=O)c1ccc(Nc2nc(OCC3CCCCC3)c3[nH]cnc3n2)cc1 | 100
O=C1C(Cl)=C(N2C(=O)CCC2=O)C(=O)c2ccccc21 | 101
Cn1nc2c3c(cccc31)C(=O)c1ccccc1-2 | 93.7
O=c1cc(-c2cccc3c2Sc2ccccc2S3)oc(N2CCOCC2)c1 | 98
C[C@@H]1CCN(C(=O)CC#N)C[C@@H]1N(C)c1ncnc2[nH]ccc12 | 98.8
Cc1cn(-c2cc(NC(=O)c3ccc(C)c(Nc4nccc(-c5cccnc5)n4)c3)cc(C(F)(F)F)c2)cn1 | 99.9
O=C(NC(NC(=S)Nc1ccc(F)c([N+](=O)[O-])c1)C(Cl)(Cl)Cl)C(c1ccccc1)c1ccccc1 (centres unmarked) | 92.6
c1ccc(-c2cnc(Nc3ccc(OCCN4CCCC4)cc3)s2)cc1 | 97
CN(C)C[C@H]1CCn2c(c(C3=C(c4cn(C)c5ccccc45)C(=O)NC3=O)c3ccccc32)C1 | 99.8
O=C1c2ccccc2-c2n[nH]c3cccc1c23 | 99.2
CCN(CC)CCNC(=O)c1c(C)[nH]c(/C=C2\C(=O)Nc3ccc(Cl)cc32)c1C | 95.5
COc1cc2ncnc(Nc3ccc(O)c(Br)c3)c2cc1OC | 97.4
COc1cc2c(cc1OC)-c1[nH]nc(Nc3cccc(F)c3)c1C2 | 101

Block 3
SMILES: O=C(O)[C@H]1[C@H](Cn2nnc3ccccc3c2=O)CC[C@@H]1C(=O)c1ccc(OCCC2CCOCC2)cc1
Observed: cell-free assay
Method: competition with immobilised ligand
Concentration: 1 µM
target | remaining binding
PIK3CA (Homo sapiens, UniProt P42336, H1047Y) | 88%
FLT3 (Homo sapiens, UniProt P36888, K663Q) | 100%
PRKG2 (Homo sapiens, UniProt Q13237) | 100%
MERTK (Homo sapiens, UniProt Q12866) | 61%
MAP4K1 (Homo sapiens, UniProt Q92918) | 87%
RIOK2 (Homo sapiens, UniProt Q9BVS4) | 100%
PTK2 (Homo sapiens, UniProt Q05397) | 89%
ALK (Homo sapiens, UniProt Q9UM73, L1196M) | 81%
LATS2 (Homo sapiens, UniProt Q9NRM7) | 100%
MAP3K15 (Homo sapiens, UniProt Q6ZN16) | 64%
NEK10 (Homo sapiens, UniProt Q6ZWH5) | 69%
FLT1 (Homo sapiens, UniProt P17948) | 96%

Block 4
Partner: H2BC13 (Homo sapiens, UniProt Q99880)
Method: cross-linking MS
Setting: hits only
Molecule | interaction screen
H2AC7 (Homo sapiens, UniProt P20671) | cross-linked
HMGA1 (Homo sapiens, UniProt P17096) | cross-linked
H2AZ1 (Homo sapiens, UniProt P0C0S5) | cross-linked
H2BC15 (Homo sapiens, UniProt Q99877) | cross-linked
H2BC3 (Homo sapiens, UniProt P33778) | cross-linked

Some of these lines once more (block 3):
target | remaining binding
PRKG2 (Homo sapiens, UniProt Q13237) | 100%
MERTK (Homo sapiens, UniProt Q12866) | 61%
MAP4K1 (Homo sapiens, UniProt Q92918) | 87%
RIOK2 (Homo sapiens, UniProt Q9BVS4) | 100%
PTK2 (Homo sapiens, UniProt Q05397) | 89%
ALK (Homo sapiens, UniProt Q9UM73, L1196M) | 81%
LATS2 (Homo sapiens, UniProt Q9NRM7) | 100%
MAP3K15 (Homo sapiens, UniProt Q6ZN16) | 64%
